Assay results collected from several papers.
Values joined by “and” are separate records of one study, mostly repeats; a detail may differ. ± gives the spread as reported.
NR4A1: Nuclear receptor subfamily 4 group A member 1 (NR4A1, Homo sapiens, UniProt P22736)
Sequence of UniProt P22736 (whole entry, looked up): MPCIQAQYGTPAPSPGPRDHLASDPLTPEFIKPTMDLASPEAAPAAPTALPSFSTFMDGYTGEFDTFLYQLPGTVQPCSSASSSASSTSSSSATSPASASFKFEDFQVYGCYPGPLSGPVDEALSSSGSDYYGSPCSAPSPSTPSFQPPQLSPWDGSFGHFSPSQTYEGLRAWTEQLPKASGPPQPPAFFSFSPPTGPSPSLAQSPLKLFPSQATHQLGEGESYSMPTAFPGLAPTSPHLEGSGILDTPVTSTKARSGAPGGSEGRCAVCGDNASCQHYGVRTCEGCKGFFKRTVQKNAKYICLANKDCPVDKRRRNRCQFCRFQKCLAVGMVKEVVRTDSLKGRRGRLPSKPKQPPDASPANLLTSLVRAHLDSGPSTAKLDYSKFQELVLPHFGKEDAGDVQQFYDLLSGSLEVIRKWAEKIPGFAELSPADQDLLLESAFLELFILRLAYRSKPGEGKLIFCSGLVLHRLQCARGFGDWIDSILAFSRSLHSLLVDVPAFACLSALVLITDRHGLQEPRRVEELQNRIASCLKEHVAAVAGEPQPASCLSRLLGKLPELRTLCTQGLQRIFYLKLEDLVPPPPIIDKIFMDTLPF
TRPV1: Transient receptor potential cation channel subfamily V member 1 (TRPV1, Homo sapiens, UniProt Q8NER1)
Sequence of UniProt Q8NER1 (whole entry, looked up): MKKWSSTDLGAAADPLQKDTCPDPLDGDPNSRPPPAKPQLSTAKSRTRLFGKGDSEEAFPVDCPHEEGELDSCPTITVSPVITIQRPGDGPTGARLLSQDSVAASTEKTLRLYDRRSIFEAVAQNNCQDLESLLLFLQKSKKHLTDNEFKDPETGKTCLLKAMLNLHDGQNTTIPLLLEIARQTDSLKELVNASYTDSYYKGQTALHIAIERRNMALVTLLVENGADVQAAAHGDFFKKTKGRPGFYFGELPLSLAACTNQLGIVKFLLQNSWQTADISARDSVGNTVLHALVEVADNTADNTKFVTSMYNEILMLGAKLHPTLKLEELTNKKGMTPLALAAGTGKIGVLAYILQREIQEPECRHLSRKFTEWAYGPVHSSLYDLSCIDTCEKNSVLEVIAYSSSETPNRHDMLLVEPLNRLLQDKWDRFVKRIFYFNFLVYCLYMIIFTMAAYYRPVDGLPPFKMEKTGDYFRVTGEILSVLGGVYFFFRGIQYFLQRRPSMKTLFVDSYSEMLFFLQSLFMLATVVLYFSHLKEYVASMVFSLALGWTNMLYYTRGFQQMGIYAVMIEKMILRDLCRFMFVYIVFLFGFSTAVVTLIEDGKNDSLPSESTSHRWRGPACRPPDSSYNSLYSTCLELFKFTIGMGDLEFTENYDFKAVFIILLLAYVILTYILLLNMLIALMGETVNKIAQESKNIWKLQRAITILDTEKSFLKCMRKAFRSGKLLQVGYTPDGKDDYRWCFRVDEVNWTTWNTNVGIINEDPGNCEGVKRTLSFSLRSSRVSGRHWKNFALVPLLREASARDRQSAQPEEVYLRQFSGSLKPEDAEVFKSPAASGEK
Tumor necrosis factor receptor superfamily member 9/Nectin-4: Tumor necrosis factor receptor superfamily member 9/Nectin-4 (Homo sapiens, UniProt Q07011+Q96NY8)
Sequence of UniProt Q07011 (whole entry, looked up): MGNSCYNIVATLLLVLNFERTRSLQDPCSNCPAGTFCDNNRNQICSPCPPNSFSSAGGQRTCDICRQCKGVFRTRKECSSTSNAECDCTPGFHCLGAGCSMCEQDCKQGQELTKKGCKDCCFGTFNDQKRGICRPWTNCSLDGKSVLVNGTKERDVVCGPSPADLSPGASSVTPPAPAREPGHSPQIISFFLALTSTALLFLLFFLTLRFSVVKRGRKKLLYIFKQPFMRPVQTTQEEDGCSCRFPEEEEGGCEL
T1: ssDNA, aptamer; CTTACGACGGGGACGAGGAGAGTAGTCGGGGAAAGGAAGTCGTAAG
Sequence of UniProt Q16774 (whole entry, unmodified, looked up): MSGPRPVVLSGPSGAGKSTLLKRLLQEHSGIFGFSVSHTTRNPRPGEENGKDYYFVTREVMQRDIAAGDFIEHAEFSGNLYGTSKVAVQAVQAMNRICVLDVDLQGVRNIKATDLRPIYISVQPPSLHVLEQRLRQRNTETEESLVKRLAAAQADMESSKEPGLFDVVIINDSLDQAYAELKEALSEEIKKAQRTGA
Sequence of UniProt P51575 (whole entry, unmodified, looked up): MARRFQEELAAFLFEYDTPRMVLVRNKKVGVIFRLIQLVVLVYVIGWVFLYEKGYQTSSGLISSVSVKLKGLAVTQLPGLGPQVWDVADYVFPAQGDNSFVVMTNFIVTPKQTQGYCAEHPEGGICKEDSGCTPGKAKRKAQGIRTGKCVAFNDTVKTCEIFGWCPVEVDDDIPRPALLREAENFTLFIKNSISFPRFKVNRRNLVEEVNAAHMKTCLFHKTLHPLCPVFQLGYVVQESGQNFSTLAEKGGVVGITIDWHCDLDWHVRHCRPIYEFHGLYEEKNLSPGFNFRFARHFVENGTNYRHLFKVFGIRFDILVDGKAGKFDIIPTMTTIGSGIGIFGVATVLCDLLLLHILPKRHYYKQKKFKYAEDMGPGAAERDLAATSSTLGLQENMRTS
Sequence of UniProt Q9UQD0 (whole entry, looked up): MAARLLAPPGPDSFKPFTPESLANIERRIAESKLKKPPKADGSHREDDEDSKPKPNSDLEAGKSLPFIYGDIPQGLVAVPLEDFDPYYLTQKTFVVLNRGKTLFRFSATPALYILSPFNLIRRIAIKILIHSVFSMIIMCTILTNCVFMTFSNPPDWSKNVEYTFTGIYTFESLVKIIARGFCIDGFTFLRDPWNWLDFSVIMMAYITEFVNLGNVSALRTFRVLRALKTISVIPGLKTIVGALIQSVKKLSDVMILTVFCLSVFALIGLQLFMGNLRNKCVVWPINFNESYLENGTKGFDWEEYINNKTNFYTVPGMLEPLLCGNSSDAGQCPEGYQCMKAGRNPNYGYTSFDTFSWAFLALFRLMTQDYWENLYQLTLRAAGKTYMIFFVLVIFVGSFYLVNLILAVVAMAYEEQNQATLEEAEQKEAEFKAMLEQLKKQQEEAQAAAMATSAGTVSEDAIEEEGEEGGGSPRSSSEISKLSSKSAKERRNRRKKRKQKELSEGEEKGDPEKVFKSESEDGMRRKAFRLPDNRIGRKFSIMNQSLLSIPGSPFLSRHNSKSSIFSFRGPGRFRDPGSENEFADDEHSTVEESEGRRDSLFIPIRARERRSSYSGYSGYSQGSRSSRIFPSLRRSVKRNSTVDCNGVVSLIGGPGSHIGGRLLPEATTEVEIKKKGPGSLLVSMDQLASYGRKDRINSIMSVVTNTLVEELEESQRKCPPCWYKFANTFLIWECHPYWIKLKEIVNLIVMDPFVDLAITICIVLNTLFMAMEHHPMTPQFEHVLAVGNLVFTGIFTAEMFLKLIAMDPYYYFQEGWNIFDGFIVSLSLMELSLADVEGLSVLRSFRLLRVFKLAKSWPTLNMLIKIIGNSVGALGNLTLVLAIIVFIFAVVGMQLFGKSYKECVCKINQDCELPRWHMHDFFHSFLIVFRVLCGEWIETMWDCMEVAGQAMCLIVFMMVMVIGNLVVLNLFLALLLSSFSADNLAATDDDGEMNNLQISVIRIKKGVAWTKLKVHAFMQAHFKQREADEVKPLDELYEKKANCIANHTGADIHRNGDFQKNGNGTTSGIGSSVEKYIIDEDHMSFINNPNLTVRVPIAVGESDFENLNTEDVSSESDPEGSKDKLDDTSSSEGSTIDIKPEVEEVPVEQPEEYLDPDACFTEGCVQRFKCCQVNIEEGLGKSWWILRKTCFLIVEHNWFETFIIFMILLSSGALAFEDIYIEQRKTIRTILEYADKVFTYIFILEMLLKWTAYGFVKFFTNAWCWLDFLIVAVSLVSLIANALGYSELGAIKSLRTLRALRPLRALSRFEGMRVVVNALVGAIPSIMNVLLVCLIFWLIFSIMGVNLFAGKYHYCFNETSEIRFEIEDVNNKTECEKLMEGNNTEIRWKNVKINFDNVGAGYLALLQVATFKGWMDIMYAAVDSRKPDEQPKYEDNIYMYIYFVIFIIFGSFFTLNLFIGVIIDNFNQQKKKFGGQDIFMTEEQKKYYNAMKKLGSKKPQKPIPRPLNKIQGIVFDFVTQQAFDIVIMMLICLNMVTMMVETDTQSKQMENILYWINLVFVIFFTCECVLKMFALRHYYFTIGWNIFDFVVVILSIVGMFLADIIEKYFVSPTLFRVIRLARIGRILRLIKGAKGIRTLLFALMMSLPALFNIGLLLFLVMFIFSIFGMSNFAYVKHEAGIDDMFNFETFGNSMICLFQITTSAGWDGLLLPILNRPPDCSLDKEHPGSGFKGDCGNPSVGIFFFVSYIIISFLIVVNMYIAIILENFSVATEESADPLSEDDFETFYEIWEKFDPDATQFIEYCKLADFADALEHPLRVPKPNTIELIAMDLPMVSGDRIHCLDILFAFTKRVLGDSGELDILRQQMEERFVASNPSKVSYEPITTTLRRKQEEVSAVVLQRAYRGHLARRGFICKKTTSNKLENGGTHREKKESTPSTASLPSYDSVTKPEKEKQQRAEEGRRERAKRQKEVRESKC
Sequence of UniProt Q9UBL9 (whole entry, unmodified, looked up): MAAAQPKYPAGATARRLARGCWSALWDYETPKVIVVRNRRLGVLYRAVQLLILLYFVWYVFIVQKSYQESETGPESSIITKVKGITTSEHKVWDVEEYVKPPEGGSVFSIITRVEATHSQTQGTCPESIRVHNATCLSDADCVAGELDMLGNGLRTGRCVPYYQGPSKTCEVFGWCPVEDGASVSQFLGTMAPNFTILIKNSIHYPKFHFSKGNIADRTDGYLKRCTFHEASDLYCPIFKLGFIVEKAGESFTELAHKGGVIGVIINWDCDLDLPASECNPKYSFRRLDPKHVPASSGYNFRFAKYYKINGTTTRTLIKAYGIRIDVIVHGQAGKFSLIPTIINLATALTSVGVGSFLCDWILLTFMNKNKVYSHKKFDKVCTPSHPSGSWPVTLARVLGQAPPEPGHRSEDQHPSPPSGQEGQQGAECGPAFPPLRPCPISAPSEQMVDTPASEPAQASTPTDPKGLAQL
Sequence of UniProt Q07817 (whole entry, looked up): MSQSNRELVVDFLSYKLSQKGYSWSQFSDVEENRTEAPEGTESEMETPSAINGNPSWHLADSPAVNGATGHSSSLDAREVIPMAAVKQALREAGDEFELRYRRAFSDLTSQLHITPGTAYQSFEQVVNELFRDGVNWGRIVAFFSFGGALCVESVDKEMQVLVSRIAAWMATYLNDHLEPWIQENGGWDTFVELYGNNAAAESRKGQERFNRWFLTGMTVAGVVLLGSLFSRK

C=C1C(=O)O[C@@H]2C[C@@]3(C)CCCC(=C)[C@@H]3C[C@H]12
activation (NR4A1; reporter gene, NBRE reporter full-length; 10 µM; reference: vehicle): 0.83 fold

COc1cc(CNC(=O)CCCC/C=C/C(C)C)ccc1O
open time constant (TRPV1; channel gating, single-channel inside-out patch; 100 nM, component 2 of four): 5.61 ms

O=C(CCCc1ccccc1)C(=O)NCCc1ccc(Oc2ccc(C(F)(F)F)cn2)cc1
probe-enriched protein abundance (Carboxylesterase 1F (Ces1f, Mus musculus, UniProt Q91WU0); inhibitor, refers to: CES1F; mouse, BAT cytosol proteome; 10 µM; reference: DMSO, lower = stronger inhibition): 92200 a.u.

Nc1ncnc2c1ncn2[C@@H]1O[C@H](COP(=O)(O)OP(=O)(O)OP(=O)(O)O)[C@@H](O)[C@H]1O
Km (rep, dimer, ssDNA-bound (Escherichia coli, UniProt P09980, W250A); substrate): 2800 nM

CC1(C)CCC(CN2CCN(c3ccc(C(=O)NS(=O)(=O)c4ccc(NCC5CCOCC5)c([N+](=O)[O-])c4)c(Oc4cnc5[nH]ccc5c4)c3)CC2)=C(c2ccc(Cl)cc2)C1
Hill slope (Bcl-2-like protein 1 (BCL2L1, Homo sapiens, UniProt Q07817); binding): -3.16

S=c1[nH]nc(-c2cc(-c3ccccc3)nc3ccccc23)o1
fluorescence increase (P2X purinoceptor 2 (P2RX2, Homo sapiens, UniProt Q9UBL9); calcium mobilization; MCF7 stably transfected; 100 µM, added: ATP 100 µM): 79.9 ± 2.06%

CCCC[C@@H]1NC(=O)[C@H](Cc2ccc(O)cc2)NC(=O)[C@@H]2CCCN2C(=O)[C@H](CC(=O)O)NC(=O)[C@H](C)NC(=O)[C@H](Cc2ccccc2)NC(=O)[C@@H]2CSCCC(=O)N3CN(CN(C3)C(=O)CCSC[C@H](NC(C)=O)C(=O)N[C@@H](CC(C)(C)C)C(=O)N3CCC[C@H]3C(=O)N[C@@H](CCC(=O)O)C(=O)N[C@H](CCCCNC(=O)CCc3cn(CCOCCOCCOCCOCCOCCC(=O)N[C@H]4CSCCC(=O)N5CN6CN(C5)C(=O)CCSC[C@H](NC(=O)[C@@H](CC(=O)O)NC(=O)[C@H](Cc5cccc7ccccc57)NC(=O)[C@@H]5CCCN5C4=O)C(=O)N[C@@H](CCSC)C(=O)N[C@@H](CCCCNC(=N)N)C(=O)N[C@@H](CC(=O)O)C(=O)N[C@@H](Cc4c[nH]c5ccccc45)C(=O)N[C@@H](CO)C(=O)N[C@@H]([C@@H](C)O)C(=O)N4CCC[C@H]4C(=O)N4C[C@H](O)C[C@H]4C(=O)N[C@@H](Cc4c[nH]c5ccccc45)C(=O)N[C@H](C(N)=O)CSCCC6=O)nn3)C(=O)N3CCC[C@H]3C(=O)N[C@@H](Cc3ccc(O)cc3)C(=O)N2)C(=O)CCSC[C@@H](C(N)=O)NC1=O
Emax (Tumor necrosis factor receptor superfamily member 9/Nectin-4; reporter gene, agonist; HT-1376 coculture with reporter cells; reference: background): 45 fold

O=S(=O)(O)C1CCNCC1
normalised MST signal (Sodium- and chloride-dependent taurine transporter (SLC6A6, Homo sapiens, UniProt P31641, G62A); binding, microscale thermophoresis; 122 nM, room temperature, added: 50 nM labelled protein; higher = more binding): -0.0289

Oc1ccccc1-c1n[nH]cc1-c1ccnc2ccccc12
log2 fold change (Mitosis inhibitor protein kinase SWE1 (SWE1, Candida albicans, UniProt Q5AP97); kinase binding, MIB/MS competition; Candida albicans lysate; 10 µM; reference: DMSO, negative = stronger binding): 0.01

COc1cc(CNC(=O)CCCC/C=C/C(C)C)ccc1O
calcium response (TRPV1; channel activation, FLIPR calcium; HEK293T; 0.741 µM; higher = more activation): 21.6 a.u. and 21.1 a.u. and 22.2 a.u. and 17 a.u.

Nc1ncnc2c1ncn2[C@@H]1O[C@H](COP(=O)(O)OP(=O)(O)OP(=O)(O)O)[C@@H](O)[C@H]1O
Kd (T1, ssDNA, aptamer; ITC): 884 nM

[O-][S+]1CCCCS1 (stereo not drawn)
SOD1 monomer fraction (Superoxide dismutase [Cu-Zn] (SOD1, Homo sapiens, UniProt P00441, G94A); LC-MS; human whole blood; 10 µM, 1 h, 37 °C): 99%

O=C(O)CCCc1cc2cc(Cl)ccc2n1S(=O)(=O)c1ccc2ncsc2c1
Emax (Peroxisome proliferator-activated receptor delta (PPARD, Homo sapiens, UniProt Q03181); reporter gene, agonist, luciferase reporter; reference: maximal control activation): 53%

Nc1nnc(-c2cccc(Cl)c2Cl)c(N)n1
fast tau on (Sodium channel protein type 5 subunit alpha (SCN5A, Homo sapiens, UniProt Q14524); sodium current, patch clamp; 25 µM, holding -120 mV): 67.2%

O=c1ccn([C@@H]2O[C@H](COP(=O)(O)OP(=O)(O)OP(=O)(O)O)[C@@H](O)[C@H]2O)c(=O)[nH]1
incorporation efficiency (DNA-directed RNA polymerase subunit beta' / DNA-directed RNA polymerase subunit beta (rpoC/rpoB, Escherichia coli, UniProt P0A8T7+P0A8V2); RNA extension, denaturing gel; Escherichia coli, elongation complex, 6-MI template; 5 µM, 10 min, 25 °C): 89%

O=C(C=Cc1ccccc1)Nc1cccc(-c2ccnc(N3CCOCC3)c2)c1
binding response (NR4A1; SPR; 10.0 µM): 82.3 RU

CCN1CCC[C@H]1CNC(=O)c1c(O)c(Cl)cc(Cl)c1OC
log2 fold change (2-oxoglutarate receptor 1 (OXGR1, Homo sapiens, UniProt Q96P68); β-arrestin recruitment, TANGO luminescence; concentration not given; reference: basal luminescence): 0.427

CCOC(=O)c1c(NC(=O)CNC(C)C)sc2c1CCCCC2
peak current density (Sodium channel protein type 8 subunit alpha (SCN8A, Homo sapiens, UniProt Q9UQD0); sodium current, whole-cell voltage clamp; HEK cells; 20 µM): -34.9 pA/pF

CCN1CCN(c2cc(N3CCN(CC)CC3)nc(NCCNc3ccnc4cc(Cl)ccc34)n2)CC1
activation (NR4A1; reporter gene, NBRE reporter full-length; 1 µM; reference: vehicle): 0.89 ± 0.17 fold

Nc1nc2c(ncn2[C@@H]2O[C@H](COP(=O)(O)O)[C@@H](O)[C@H]2O)c(=O)[nH]1
reaction rate (GUK1 (Homo sapiens, UniProt Q16774, Y53A); enzyme activity, NADH-coupled; 62.5 µM): -1.11 s⁻¹ and -1.43 s⁻¹ and -0.974 s⁻¹

CCCC[C@@H]1NC(=O)[C@H](Cc2ccc(O)cc2)NC(=O)[C@@H]2CCCN2C(=O)[C@H](CC(=O)O)NC(=O)[C@H](C)NC(=O)[C@H](Cc2ccccc2)NC(=O)[C@@H]2CSCCC(=O)N3CN(CN(C3)C(=O)CCSC[C@@H](C(=O)N[C@@H](C)C(N)=O)NC1=O)C(=O)CCSC[C@H](NC(C)=O)C(=O)N[C@@H](CC(C)(C)C)C(=O)N1CCC[C@H]1C(=O)N[C@@H](CCC(=O)O)C(=O)N[C@H](CCCCNC(=O)CCc1cn(CCOCCOCCOCCOCCOCCC(=O)NCCCC[C@H]3NC(=O)[C@H](Cc4cccc5ccccc45)NC(=O)[C@@H]4CCCN4C(=O)[C@@H](NC(C)=O)CSCCC(=O)N4CN5CN(C4)C(=O)CCSC[C@H](NC3=O)C(=O)N[C@@H](CCSC)C(=O)N[C@@H](CCCCNC(=N)N)C(=O)N[C@@H](CCC(=O)O)C(=O)N[C@@H](Cc3c[nH]c4ccccc34)C(=O)N[C@@H](CO)C(=O)N[C@@H]([C@@H](C)O)C(=O)N3CCC[C@H]3C(=O)N3C[C@H](O)C[C@H]3C(=O)N[C@@H](Cc3c[nH]c4ccccc34)C(=O)N[C@H](C(N)=O)CSCCC5=O)nn1)C(=O)N1CCC[C@H]1C(=O)N[C@@H](Cc1ccc(O)cc1)C(=O)N2
Emax (Tumor necrosis factor receptor superfamily member 9/Nectin-4; reporter gene, agonist; HT-1376 coculture with reporter cells; reference: background): 42 fold

O=c1nc(SCc2cc(F)cc(C(F)(F)F)c2)nc(SCc2ccc3sccc3c2)[nH]1
linear DNA (DNA topoisomerase 2-alpha (TOP2A, Homo sapiens, UniProt P11388); DNA cleavage, competition with etoposide; 125 µM, added: etoposide 50 µM): 20.1% and 23.6%

O=[N+]([O-])c1cc(C(F)(F)F)ccc1NCc1ccco1
TΔS (Endothelial PAS domain-containing protein 1, PAS-B domain (EPAS1, Homo sapiens, UniProt Q99814); binding, ITC, reverse mode): -0.3 ± 0.04 kcal/mol

Cc1cc(-c2cccc(-n3cc(COC(=O)[C@]4(C)C=C(C(=O)OC(C)(C)C)C(=O)CC4)nn3)c2)c(C)c2c1CNCC2
fraction bound (Mitogen-activated protein kinase 8 (MAPK8, Homo sapiens, UniProt P45983); D-peptide binding, inhibitor, FP peptide displacement; 12.5 µM; lower is stronger displacement): 0.655

c1ccc(OC[C@@H]2CN(CCN3CCc4ccccc43)CCO2)cc1
inhibition (5-hydroxytryptamine receptor 5A (HTR5A, Homo sapiens, UniProt P47898); radioligand binding; concentration not given, added: [3H]LSD): 11.2%

CC1(C)CC2(C)OC(=O)NC2(C)c2ccccc21 (stereo not drawn)
fold enrichment (FBXW7 (Homo sapiens, UniProt Q969H0); binding, affinity selection mass spectrometry; reference: other proteins in batch): 0.984

Cn1cc(-c2ccc(-c3cncc(Cl)c3N3CCC4(CCNC4=O)CC3)cc2)cn1
log2 fold change (COLO 205; gene expression, microarray, refers to: PCK2 mRNA; concentration not given, 2 h; reference: untreated cells): -1.45

C[C@H]1O[C@@H](O[C@H]2CC[C@@]3(C)[C@@H](CC[C@]4(C)[C@@H]3C=CC3=C5CC(C)(C)CC[C@]5(CO)[C@@H](O)C[C@]34C)[C@]2(C)CO)[C@H](O)[C@@H](O[C@@H]2O[C@H](CO)[C@@H](O)[C@H](O)[C@H]2O)[C@H]1O
MST normalised fluorescence (NAD-dependent protein deacetylase sirtuin-1 (SIRT1, Homo sapiens, UniProt Q96EB6); binding, microscale thermophoresis; 161 nM): 884 a.u.

Cc1cccc(C(=O)Nc2ccc3c(c2)CN(C2CCC(=O)NC2=O)C3=O)c1 (stereo not drawn)
degradation rate constant (Cereblon/Casein kinase I alpha (CSNK1A1/CRBN, Homo sapiens, UniProt P48729+Q96SW2); degrader, live-cell HiBiT kinetic; HEK293 LgBiT; 10 µM): 1.8 h⁻¹

CCCC(CCC)c1nc2c(Nc3ccc(C#CCCCCCCCCN)cc3)nc3ccccc3c2[nH]1
off-target affinity (Alpha-1A adrenergic receptor (ADRA1A, Homo sapiens, UniProt P35348); PDSP screening): inactive

CCC1(O)CCCN(C(=O)c2ccc(-c3ccc(F)c(NC(=O)CCl)c3)cc2)C1 (stereo not drawn)
protein adduct (DNA dC->dU-editing enzyme APOBEC-3B, C-terminal domain (Homo sapiens, UniProt Q9UH17); covalent modifier, intact protein mass spectrometry, refers to: adduct +25721 Da; 500 µM, 3 h, 20-fold molar excess): 65%

Nc1ncnc2c1ncn2[C@@H]1O[C@H](COP(=O)(O)OP(=O)(O)OP(=O)(O)O)[C@@H](O)[C@H]1O
Hill coefficient (P2X purinoceptor 2 (P2RX2, Homo sapiens, UniProt Q9UBL9, R130E); channel activation, agonist; transfected HEK293 cells; divalent-free solution, added: 10 mM EDTA): 1.8 ± 0.1

Nc1ncnc2c1ncn2[C@@H]1O[C@H](COP(=O)(O)OP(=O)(O)OP(=O)(O)O)[C@@H](O)[C@H]1O
kcat (Hexokinase-3 (HK3, Homo sapiens, UniProt P52790, A499V); substrate; mutant A499V, added: glucose 0.5 mM): 70 ± 7 s⁻¹

O=C(O)c1ccc(Nc2ncc3c(n2)-c2ccc(Cl)cc2C(c2c(F)cccc2F)=NC3)cc1
remaining activity (human ZAP-70(h); kinase activity; 1 µM): 96%

Nc1ncnc2c1ncn2[C@@H]1O[C@H](COP(=O)(O)CP(=O)(O)OP(=O)(O)O)[C@@H](O)[C@H]1O
specific binding (P2X purinoceptor 1 (P2RX1, Homo sapiens, UniProt P51575, E122A); saturation binding; HEK293; 25 nM): 178 CCPM and 276 CCPM and 192 CCPM

Nc1ccc(S(=O)(=O)Nc2nnc(Cc3ccc(Cl)cc3)s2)cc1
Kii (Glutathione hydrolase 1 proenzyme, without transmembrane domain (Homo sapiens, UniProt P19440); GSH hydrolysis, uncompetitive inhibitor; 37 °C, binds gamma-glutamyl enzyme, added: GSH 5-20 µM): 419 ± 27 µM
